Experimental data of several laboratories.
Parts stem from different laboratories: compare values within a part only. Changes are numbered by the printed parent chain.

Block 1
Target: ABI1, truncated, D143A, DHFR fusion (Arabidopsis thaliana)
Technique: DHFR PCA, deep sequencing
Matrix: yeast
Setting: methotrexate growth selection, single substitutions
Added: (+)-ABA 0 µM
Relative to: wild-type fitted maximum
Direction: higher = stronger binding
Quantity: relative binding score
Parent: PYL1, truncated, DHFR fusion (Arabidopsis thaliana); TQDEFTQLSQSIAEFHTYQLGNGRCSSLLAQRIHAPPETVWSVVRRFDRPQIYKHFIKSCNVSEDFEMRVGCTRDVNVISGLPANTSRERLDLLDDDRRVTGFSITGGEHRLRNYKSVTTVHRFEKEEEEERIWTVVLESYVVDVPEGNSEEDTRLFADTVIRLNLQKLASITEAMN
Change = S140Q; result = 8.41%
Change = I162W; result = 4.28%
Change = L166S; result = -0.545%
Change = V40Y; result = 3.57%
Change = T106D; result = -5.39%
Change = T101Y; result = 2.31%
Change = I79V; result = 42.3%
Change = R123L; result = 0.661%
Change = R45H; result = -0.375%
Change = S42L; result = -0.269%
Change = L156C; result = 14%
Change = R74S; result = 1.66%
Change = C72A; result = 52.8%
Change = D144M; result = -3.69%
Change = D97W; result = -4.08%
Change = Q7E; result = 34%
Change = G102A; result = 11.6%
Change = R90W; result = -3.22%
Change = F103Y; result = 60%
Change = E109L; result = -5.4%
Change = Y141N; result = 2.06%

Block 2
Target: CCNB3, cyclin fold, Cln2 fusion (human)
Technique: yeast growth competition, sequencing
Matrix: yeast
Setting: weak parent motif
Relative to: not given
Direction: higher = stronger binding
Quantity: normalised enrichment score
Parent: PKN2 docking peptide (human); VSAVQKLDFSDTM; partner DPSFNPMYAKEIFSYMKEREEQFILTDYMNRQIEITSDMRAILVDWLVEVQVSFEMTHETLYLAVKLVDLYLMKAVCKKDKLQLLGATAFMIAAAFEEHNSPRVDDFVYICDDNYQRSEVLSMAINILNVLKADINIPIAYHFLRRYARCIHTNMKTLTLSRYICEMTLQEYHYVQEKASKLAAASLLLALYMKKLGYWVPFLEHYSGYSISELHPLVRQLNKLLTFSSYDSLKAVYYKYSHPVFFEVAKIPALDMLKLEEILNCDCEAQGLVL
Change = F9K; result = 0.267
Change = A3P; result = 0.537
Change = F9C; result = 0.064
Change = L7Q; result = -0.0768
Change = T12Q; result = -0.0429
Change = K6E; result = 0.0813
Change = A3C; result = 0.193
Change = D11C; result = 0.522
Change = D11S; result = 0.333
Change = V1H; result = 0.198
Change = L7D; result = 0.0231
Change = Q5A L7A; result = 0.112
Change = S2W; result = 0.334
Change = F9P; result = 0.00292
Change = S10N; result = -0.186
Change = V4N; result = -0.144
Change = F9N; result = 0.226
Change = V1W; result = 0.295
Change = T12H; result = 0.288
Change = S2C; result = 0.447
Change = A3G; result = -0.0314
Change = D8M; result = 0.519
Change = K6T; result = 0.506

Block 3
Target: Fragile X messenger ribonucleoprotein 1, C-terminal low-complexity region (Fmr1, Mus musculus, UniProt P35922)
Technique: RNA Bind-n-Seq
Molecule type: RNA
Matrix: in vitro
Tested at: 200 nM
Setting: whole 134-nt RNA, ends assumed
Added: 150 mM KCl
Relative to: input library
Direction: higher = stronger binding
Quantity: log2 enrichment
Strand = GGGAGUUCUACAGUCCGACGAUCACCAUGCAGGUGGGCAUCUUUGGGAAGUGGGGCGAGGGGGGGAUAGGGAGGGGGGUAACACUUUGGGAACAGGUGGUCCCAGGUCGUUUCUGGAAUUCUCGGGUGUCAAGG; result = 0.932
Strand = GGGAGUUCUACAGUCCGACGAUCUAACUUUAGAGGAGGAUCUGAUGGAUAUGGCUGUGGACGUGGAUUUGGGGAUGGCUAUAAUGGGUAUGGAGGAGGACCUGGAGGUGGCAAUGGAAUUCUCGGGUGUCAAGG; result = 0.368
Strand = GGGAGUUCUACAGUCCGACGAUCAGUCCUGUGCUACACAUCGUAUGUACCGAAUCGGGAAAGGGUUUUUUUGGGUUUGGGAAAGUAUUAUGUUACGCCGUUCGGAUCUGCACUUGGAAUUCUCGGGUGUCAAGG; result = 0.226
Strand = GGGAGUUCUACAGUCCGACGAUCAAGUCCUGUGCUACACAUCGUAUGUACCGAAUCGGCCCCCGGCCCCCGGGCCCCCGGAAAGUAUUAUGUUACGCCGUUCGGAUCUGCACUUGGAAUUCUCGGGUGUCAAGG; result = -0.241
Strand = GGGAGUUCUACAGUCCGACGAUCUUGAUGCCCCAGAUGUGGAUGUUCAUGGCCCAGACUGGCACCUGAAGAUGCCUAAGAUGAAAAUGCCCAAGUUCAGCAUGCCUGGCUUCAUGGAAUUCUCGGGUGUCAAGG; result = 0.289
Strand = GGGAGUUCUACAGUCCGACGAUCUGGGAGUUGGAUUUUGUUUAUUUUUUUAGCUCAUUUCCAGGGGUGGGAAUUUUUUUUUAAUAUGUGUCAUGAAUAAAGUUGUUUUUGAAAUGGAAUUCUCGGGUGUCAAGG; result = -0.723
Strand = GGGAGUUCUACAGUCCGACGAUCUCCCUAUUCCAGUCAUACACGUGGACCUAACUGCACCAGUAGCUUUUCUGAGAAUACUUGCUGAAAAGGAAGUUUUCUGGAAUGGGUAAGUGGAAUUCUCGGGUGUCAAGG; result = -0.206
Strand = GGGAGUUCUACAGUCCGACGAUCGUCCUGUGCUACACAUCGUAUGUACCGAAUCGGGCCCCCCGGCCCCCCGGGCCCCCCGGAAAGUAUUAUGUUACGCCGUUCGGAUCUGCAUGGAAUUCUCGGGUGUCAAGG; result = -0.176
Strand = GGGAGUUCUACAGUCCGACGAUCAGUUCUAUCUCUGGGGUGACUGCCGCAUAUAACCGAGAACAGCUGUGGCUGGCCAAUGAAGGCCUGAUCACCAGGCUGCAGGCUCGCUGCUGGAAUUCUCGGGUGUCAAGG; result = -0.551
Strand = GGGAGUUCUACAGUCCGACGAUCCCCAGACAACACGCACCCACACAGACACAGAGGGAAGGGGUUGGGAUGGGGACAGGGUGCACAGCAGGGCGGGGUAGGACCCCAGCCCCUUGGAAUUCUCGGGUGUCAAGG; result = 1.35
Strand = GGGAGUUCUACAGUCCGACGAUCUGGCCCAGGUGGCAUGCGGGGAGGAAGAGGUGGCCUCAUGGAUCGUGGUGGUCCCGGUGGAAUGUUCAGAGGUGGCCGUGGUGGAGACAGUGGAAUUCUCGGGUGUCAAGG; result = 0.303
Strand = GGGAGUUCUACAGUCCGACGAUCCUGUGCUACACAUCGUAUGUACCGAAUCGGGGUUUUUUGGGGUUUUUUGGGGUUUUUUGGGGAAAGUAUUAUGUUACGCCGUUCGGAUCUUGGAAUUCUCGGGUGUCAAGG; result = 0.229
Strand = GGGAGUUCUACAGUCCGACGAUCCCUCAAGUCCUGUGCUACACAUCGUAUGUACCGAAUCGGCCGGCCGGCCGGGGAAAGUAUUAUGUUACGCCGUUCGGAUCUGCACUUCCAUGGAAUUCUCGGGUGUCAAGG; result = -0.161
Strand = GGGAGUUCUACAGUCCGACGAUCAGUCCUGUGCUACACAUCGUAUGUACCGAAUCGGGGUUUUUUUGGGGUGGGGUGGGGAAAGUAUUAUGUUACGCCGUUCGGAUCUGCACUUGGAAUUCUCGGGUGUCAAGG; result = 1.29

Other studies, line by line
Substance = PhoQ, residues 284 288 289 292 302 303 SIHMAM; target = PhoP, residues 12 14 15 18 19 DLLYY (Escherichia coli, UniProt P23836); test = Sort-seq, item: YFP reporter; system = E. coli; conditions = PhoQ-PhoP variant library, added: 10 µM Mg2+; scale = relative to: high Mg2+ state, higher = stronger signaling; quantity = fold induction; result = 1.45

Some of these lines once more (block 2):
Change = S2W; result = 0.334
Change = F9P; result = 0.00292
Change = F9N; result = 0.226
Change = S2C; result = 0.447
Change = S10N; result = -0.186
Change = V1W; result = 0.295
Change = K6E; result = 0.0813
Change = L7D; result = 0.0231
Change = A3G; result = -0.0314
